Published values from different studies.
Every numbered part comes from another study and shows a few of its results, in no order.
UniProt Q9UIK4, sequence (whole entry, looked up): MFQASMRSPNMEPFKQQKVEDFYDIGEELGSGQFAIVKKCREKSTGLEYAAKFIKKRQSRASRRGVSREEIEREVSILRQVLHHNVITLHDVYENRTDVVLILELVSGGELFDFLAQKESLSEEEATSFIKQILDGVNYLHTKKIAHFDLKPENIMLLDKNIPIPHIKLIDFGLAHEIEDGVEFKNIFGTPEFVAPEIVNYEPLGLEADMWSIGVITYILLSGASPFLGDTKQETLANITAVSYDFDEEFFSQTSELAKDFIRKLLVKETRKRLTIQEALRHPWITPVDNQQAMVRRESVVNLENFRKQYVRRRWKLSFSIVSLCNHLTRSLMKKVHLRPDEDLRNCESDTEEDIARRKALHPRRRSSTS
UniProt Q8TF76, sequence (whole entry, looked up): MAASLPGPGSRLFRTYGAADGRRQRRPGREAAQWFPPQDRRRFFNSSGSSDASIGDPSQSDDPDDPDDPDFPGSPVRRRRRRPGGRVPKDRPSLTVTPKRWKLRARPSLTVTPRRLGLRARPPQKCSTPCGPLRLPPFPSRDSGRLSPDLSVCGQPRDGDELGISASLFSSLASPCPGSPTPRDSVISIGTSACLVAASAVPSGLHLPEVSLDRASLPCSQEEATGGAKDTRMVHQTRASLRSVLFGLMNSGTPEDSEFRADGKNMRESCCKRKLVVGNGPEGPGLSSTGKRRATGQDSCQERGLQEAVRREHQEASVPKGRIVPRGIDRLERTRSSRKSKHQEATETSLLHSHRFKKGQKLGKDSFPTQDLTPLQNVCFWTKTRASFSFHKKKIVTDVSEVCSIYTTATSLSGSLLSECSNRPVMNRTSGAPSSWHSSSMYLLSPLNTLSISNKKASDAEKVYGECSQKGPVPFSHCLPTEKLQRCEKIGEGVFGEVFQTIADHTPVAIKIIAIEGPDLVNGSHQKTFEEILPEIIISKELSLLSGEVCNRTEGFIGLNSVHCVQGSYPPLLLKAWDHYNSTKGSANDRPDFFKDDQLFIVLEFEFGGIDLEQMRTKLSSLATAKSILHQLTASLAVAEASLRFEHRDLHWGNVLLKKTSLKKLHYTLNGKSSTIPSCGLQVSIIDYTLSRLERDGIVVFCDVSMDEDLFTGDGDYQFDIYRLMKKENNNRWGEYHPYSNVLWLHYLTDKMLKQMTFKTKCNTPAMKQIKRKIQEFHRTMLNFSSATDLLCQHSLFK
UniProt Q99755, sequence (whole entry, looked up): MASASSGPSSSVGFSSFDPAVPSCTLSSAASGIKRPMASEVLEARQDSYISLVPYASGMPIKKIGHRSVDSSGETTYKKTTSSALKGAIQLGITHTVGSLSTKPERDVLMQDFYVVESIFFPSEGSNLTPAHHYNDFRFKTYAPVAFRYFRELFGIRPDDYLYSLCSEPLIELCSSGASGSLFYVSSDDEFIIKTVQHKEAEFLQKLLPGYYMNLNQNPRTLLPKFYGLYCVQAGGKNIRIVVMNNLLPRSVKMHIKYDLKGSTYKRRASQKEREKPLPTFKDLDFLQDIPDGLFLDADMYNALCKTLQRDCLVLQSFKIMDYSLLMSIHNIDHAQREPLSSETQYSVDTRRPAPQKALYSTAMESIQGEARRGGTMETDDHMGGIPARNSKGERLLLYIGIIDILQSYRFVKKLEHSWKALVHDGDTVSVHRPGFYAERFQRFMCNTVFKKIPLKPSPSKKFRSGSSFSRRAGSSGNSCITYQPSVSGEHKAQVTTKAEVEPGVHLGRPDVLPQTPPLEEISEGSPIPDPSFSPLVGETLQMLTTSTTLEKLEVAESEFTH
UniProt O14920, sequence (whole entry, looked up): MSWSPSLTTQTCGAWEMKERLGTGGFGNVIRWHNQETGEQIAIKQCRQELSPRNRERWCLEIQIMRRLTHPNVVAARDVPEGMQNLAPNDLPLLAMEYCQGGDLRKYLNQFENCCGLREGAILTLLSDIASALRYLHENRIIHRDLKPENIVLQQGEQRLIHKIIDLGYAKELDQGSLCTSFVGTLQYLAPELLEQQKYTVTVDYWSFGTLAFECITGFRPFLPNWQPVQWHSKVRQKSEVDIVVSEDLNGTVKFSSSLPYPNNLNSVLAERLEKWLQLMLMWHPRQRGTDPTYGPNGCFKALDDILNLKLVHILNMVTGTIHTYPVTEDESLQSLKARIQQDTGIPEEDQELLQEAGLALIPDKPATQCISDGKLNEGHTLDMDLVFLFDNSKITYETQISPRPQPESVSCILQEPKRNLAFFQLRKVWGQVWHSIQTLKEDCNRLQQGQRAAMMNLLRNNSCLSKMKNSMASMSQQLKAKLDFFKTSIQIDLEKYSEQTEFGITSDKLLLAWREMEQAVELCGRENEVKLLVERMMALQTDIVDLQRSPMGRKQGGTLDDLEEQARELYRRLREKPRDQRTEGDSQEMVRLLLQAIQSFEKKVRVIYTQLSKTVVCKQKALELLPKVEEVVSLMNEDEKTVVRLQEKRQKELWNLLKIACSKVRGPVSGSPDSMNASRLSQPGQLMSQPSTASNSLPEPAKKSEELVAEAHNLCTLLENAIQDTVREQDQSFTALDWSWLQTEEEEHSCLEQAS
UniProt Q16832, sequence (whole entry, looked up): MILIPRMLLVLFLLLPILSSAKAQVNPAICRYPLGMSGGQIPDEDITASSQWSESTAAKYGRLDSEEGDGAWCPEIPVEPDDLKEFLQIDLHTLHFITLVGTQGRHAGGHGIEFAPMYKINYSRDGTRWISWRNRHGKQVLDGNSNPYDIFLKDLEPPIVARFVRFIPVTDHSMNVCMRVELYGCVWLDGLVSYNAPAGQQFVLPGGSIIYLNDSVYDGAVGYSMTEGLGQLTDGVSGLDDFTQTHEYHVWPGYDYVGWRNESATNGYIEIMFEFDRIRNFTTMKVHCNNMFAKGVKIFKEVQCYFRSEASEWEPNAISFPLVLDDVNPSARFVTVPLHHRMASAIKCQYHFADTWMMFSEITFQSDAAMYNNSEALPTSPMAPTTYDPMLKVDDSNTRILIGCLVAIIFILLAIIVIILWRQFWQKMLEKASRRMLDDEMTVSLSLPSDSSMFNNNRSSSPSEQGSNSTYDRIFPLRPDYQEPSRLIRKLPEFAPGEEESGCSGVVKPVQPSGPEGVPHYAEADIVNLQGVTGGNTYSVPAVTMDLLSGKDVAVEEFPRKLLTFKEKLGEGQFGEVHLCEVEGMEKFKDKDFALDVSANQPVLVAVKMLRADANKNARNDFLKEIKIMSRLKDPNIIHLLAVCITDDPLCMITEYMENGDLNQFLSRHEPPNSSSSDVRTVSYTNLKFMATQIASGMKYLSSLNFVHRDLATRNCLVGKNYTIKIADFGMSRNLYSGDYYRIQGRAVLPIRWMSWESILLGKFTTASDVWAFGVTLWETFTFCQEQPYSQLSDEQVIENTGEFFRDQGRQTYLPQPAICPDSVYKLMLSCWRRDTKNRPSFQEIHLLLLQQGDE

Block 1 — effect on: thermal unfolding; method: differential scanning fluorimetry; concentration: 5.5 µM; reading: higher = more unfolded
SMILES: C[C@@H]1CN(c2ccc(-c3cc(C(=O)NCCOCCOCCOCCOCCNC(=O)Cn4cc(-c5[nH]cc(C(=O)N[C@@H](CC(N)=O)c6ccc(F)c(Cl)c6)c5-c5ccc(Cl)cc5F)cn4)ccc3F)cc2NC(=O)c2c[nH]c(=O)cc2C(F)(F)F)C[C@H](C)N1C
DCAF1: DDB1- and CUL4-associated factor 1 (DCAF1, Homo sapiens, UniProt Q9Y4B6)
UniProt Q9Y4B6, sequence (whole entry, looked up): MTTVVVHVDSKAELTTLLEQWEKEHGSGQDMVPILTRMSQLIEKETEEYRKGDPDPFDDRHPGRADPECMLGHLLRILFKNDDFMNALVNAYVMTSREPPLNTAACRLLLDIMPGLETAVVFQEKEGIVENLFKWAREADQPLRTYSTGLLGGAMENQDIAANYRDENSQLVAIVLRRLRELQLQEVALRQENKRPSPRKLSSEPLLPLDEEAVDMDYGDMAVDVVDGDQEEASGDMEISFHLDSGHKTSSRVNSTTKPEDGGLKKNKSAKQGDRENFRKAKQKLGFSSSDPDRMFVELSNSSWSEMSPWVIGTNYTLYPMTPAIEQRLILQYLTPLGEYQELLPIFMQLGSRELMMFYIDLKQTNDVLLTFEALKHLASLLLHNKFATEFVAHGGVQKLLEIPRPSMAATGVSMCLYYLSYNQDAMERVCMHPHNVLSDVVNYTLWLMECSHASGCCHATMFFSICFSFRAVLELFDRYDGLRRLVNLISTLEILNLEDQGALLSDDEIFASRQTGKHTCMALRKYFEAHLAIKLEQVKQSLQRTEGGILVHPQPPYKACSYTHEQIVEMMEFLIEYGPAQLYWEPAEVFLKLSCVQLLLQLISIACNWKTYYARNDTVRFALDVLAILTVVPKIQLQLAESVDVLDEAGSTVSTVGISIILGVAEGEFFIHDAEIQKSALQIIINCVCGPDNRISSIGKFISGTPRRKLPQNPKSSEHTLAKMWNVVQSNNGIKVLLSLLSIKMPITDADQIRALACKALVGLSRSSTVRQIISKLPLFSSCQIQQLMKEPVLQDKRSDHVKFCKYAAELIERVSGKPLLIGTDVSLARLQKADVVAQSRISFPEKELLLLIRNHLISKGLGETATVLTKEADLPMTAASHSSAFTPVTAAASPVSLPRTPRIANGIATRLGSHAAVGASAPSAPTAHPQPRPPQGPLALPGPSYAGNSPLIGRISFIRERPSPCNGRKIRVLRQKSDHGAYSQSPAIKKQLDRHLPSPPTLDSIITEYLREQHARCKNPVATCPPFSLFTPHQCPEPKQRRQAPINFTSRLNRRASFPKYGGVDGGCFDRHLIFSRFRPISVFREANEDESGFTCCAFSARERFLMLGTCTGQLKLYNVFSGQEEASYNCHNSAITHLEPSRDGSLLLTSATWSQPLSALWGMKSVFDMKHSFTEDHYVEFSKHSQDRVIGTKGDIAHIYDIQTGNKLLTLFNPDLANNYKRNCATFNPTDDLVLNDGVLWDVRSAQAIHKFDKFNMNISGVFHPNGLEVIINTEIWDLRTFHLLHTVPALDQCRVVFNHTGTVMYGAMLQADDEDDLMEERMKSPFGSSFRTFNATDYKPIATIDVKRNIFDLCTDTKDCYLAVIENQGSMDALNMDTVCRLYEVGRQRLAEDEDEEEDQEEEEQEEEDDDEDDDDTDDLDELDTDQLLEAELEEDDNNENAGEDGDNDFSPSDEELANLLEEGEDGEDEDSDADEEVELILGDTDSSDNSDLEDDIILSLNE
WDR5: WD repeat-containing protein 5 (WDR5, Homo sapiens, UniProt P61964)
target | conditions | SYPRO Orange fluorescence [a.u.]
DCAF1 | 56.21 °C | 22400
DCAF1 | 83.61 °C | 41100
DCAF1 | 52.41 °C | 16100
WDR5 | 64.21 °C | 8060
WDR5 | 63.61 °C | 8410
WDR5 | 51.4 °C | 14400
DCAF1 | 87.61 °C | 37300

Block 2 — concentration: 1 µM
Structure (SMILES): COc1cc(-c2nc3ccc(C(=O)NCCCN4CCN(c5cccc(C)c5C)CC4)cc3n2C2CCC2)cc(OC)c1OC
target | test | scale | remaining binding [%]
Dual specificity tyrosine-phosphorylation-regulated kinase 2 (DYRK2, Homo sapiens, UniProt Q92630) | binding, competition with immobilised ligand | – | 76
Receptor-type tyrosine-protein kinase FLT3 (FLT3, Homo sapiens, UniProt P36888, R834Q) | binding, competition with immobilised ligand | – | 99
Insulin receptor-related protein (INSRR, Homo sapiens, UniProt P14616) | binding, competition with immobilised ligand | – | 88
SRSF protein kinase 3 (SRPK3, Homo sapiens, UniProt Q9UPE1) | binding, competition with immobilised ligand | – | 100
Dual specificity mitogen-activated protein kinase kinase 2 (MAP2K2, Homo sapiens, UniProt P36507) | binding, competition with immobilised ligand | – | 89
Casein kinase I isoform delta (CSNK1D, Homo sapiens, UniProt P48730) | binding, competition with immobilised ligand | – | 100
RAC-alpha serine/threonine-protein kinase (AKT1, Homo sapiens, UniProt P31749) | binding, competition with immobilised ligand | – | 82
Dual specificity mitogen-activated protein kinase kinase 4 (MAP2K4, Homo sapiens, UniProt P45985) | binding, competition with immobilised ligand | – | 85
Transient receptor potential cation channel subfamily M member 6 (TRPM6, Homo sapiens, UniProt Q9BX84) | binding, competition with immobilised ligand | – | 100
Serine/threonine-protein kinase SIK1 (SIK1, Homo sapiens, UniProt P57059) | KINOMEscan | reference: control | 87
BDNF/NT-3 growth factors receptor (NTRK2, Homo sapiens, UniProt Q16620) | binding, competition with immobilised ligand | – | 100
NUAK family SNF1-like kinase 2 (NUAK2, Homo sapiens, UniProt Q9H093) | binding, competition with immobilised ligand | – | 89
Mitogen-activated protein kinase kinase kinase 20 (MAP3K20, Homo sapiens, UniProt Q9NYL2) | binding, competition with immobilised ligand | – | 91
Mitogen-activated protein kinase kinase kinase kinase 3 (MAP4K3, Homo sapiens, UniProt Q8IVH8) | binding, competition with immobilised ligand | – | 98
Discoidin domain-containing receptor 2 (DDR2, Homo sapiens, UniProt Q16832) | binding, competition with immobilised ligand | – | 83
Casein kinase I isoform gamma-1 (CSNK1G1, Homo sapiens, UniProt Q9HCP0) | binding, competition with immobilised ligand | – | 93
NUAK family SNF1-like kinase 1 (NUAK1, Homo sapiens, UniProt O60285) | binding, competition with immobilised ligand | – | 100

Block 3 — Structure (SMILES): O=C(Nc1ccccc1)Nc1cccc(Oc2ccc3nccn3n2)c1; concentration: 1 µM
target | test | remaining binding [%]
Serine/threonine-protein kinase TAO3 (TAOK3, Homo sapiens, UniProt Q9H2K8) | cell-free binding | 100
Serine/threonine-protein kinase WNK3 (WNK3, Homo sapiens, UniProt Q9BYP7) | binding | 100
Beta-adrenergic receptor kinase 1 (GRK2, Homo sapiens, UniProt P25098) | binding | 100
Membrane-associated tyrosine- and threonine-specific cdc2-inhibitory kinase (PKMYT1, Homo sapiens, UniProt Q99640) | binding, competition with immobilised ligand | 100
Serine/threonine-protein kinase 10 (STK10, Homo sapiens, UniProt O94804) | binding, competition with immobilised ligand | 82
Mitogen-activated protein kinase kinase kinase 14 (MAP3K14, Homo sapiens, UniProt Q99558) | binding | 93
Phosphatidylinositol 4-phosphate 5-kinase type-1 alpha (PIP5K1A, Homo sapiens, UniProt Q99755) | binding | 91
Mitogen-activated protein kinase 4 (MAPK4, Homo sapiens, UniProt P31152) | binding | 100
Serine/threonine-protein kinase DCLK3 (DCLK3, Homo sapiens, UniProt Q9C098) | binding, competition with immobilised ligand | 31
Tyrosine-protein kinase Fes/Fps (FES, Homo sapiens, UniProt P07332) | binding | 100
Serine/threonine-protein kinase ULK2 (ULK2, Homo sapiens, UniProt Q8IYT8) | binding | 100
Cyclin-dependent kinase 2 (CDK2, Homo sapiens, UniProt P24941) | binding, competition with immobilised ligand | 100
Serine/threonine-protein kinase 35 (STK35, Homo sapiens, UniProt Q8TDR2) | cell-free binding | 89

Block 4 — concentration: 1 µM
Structure (SMILES): CC[C@@]1(c2cccc(-c3c(F)cncc3OC)c2)C2=C(Nc3n[nH]cc31)[C@H](F)C(C)(C)CC2=O (single isomer, unassigned)
target | test | scale | remaining binding
Inhibitor of nuclear factor kappa-B kinase subunit beta (IKBKB, Homo sapiens, UniProt O14920) | kinase binding, KINOMEscan | reference: DMSO control | 64%
Serine/threonine-protein kinase haspin (HASPIN, Homo sapiens, UniProt Q8TF76) | binding, competition with immobilised ligand | – | 62%
Insulin receptor (INSR, Homo sapiens, UniProt P06213) | kinase binding, KINOMEscan | reference: DMSO control | 80%
Leucine-rich repeat serine/threonine-protein kinase 2 (LRRK2, Homo sapiens, UniProt Q5S007) | kinase binding, KINOMEscan | reference: DMSO control | 56%
Calcium/calmodulin-dependent protein kinase type II subunit alpha (CAMK2A, Homo sapiens, UniProt Q9UQM7) | binding, competition with immobilised ligand | – | 82%
Serine/threonine-protein kinase Chk1 (CHEK1, Homo sapiens, UniProt O14757) | kinase binding, KINOMEscan | reference: DMSO control | 75%
Tyrosine-protein kinase TXK (TXK, Homo sapiens, UniProt P42681) | kinase binding, KINOMEscan | reference: DMSO control | 89%
Phosphatidylinositol 5-phosphate 4-kinase type-2 beta (PIP4K2B, Homo sapiens, UniProt P78356) | binding, competition with immobilised ligand | – | 100%
Cyclin-dependent kinase-like 1 (CDKL1, Homo sapiens, UniProt Q00532) | binding, competition with immobilised ligand | – | 94%
Death-associated protein kinase 2 (DAPK2, Homo sapiens, UniProt Q9UIK4) | binding, competition with immobilised ligand | – | 80%
Rhodopsin kinase GRK7 (GRK7, Homo sapiens, UniProt Q8WTQ7) | binding, competition with immobilised ligand | – | 92%
Mitogen-activated protein kinase kinase kinase 2 (MAP3K2, Homo sapiens, UniProt Q9Y2U5) | binding, competition with immobilised ligand | – | 90%

Repeated from above (block 4):
target | test | scale | remaining binding
Insulin receptor (INSR, Homo sapiens, UniProt P06213) | kinase binding, KINOMEscan | reference: DMSO control | 80%
Leucine-rich repeat serine/threonine-protein kinase 2 (LRRK2, Homo sapiens, UniProt Q5S007) | kinase binding, KINOMEscan | reference: DMSO control | 56%
Calcium/calmodulin-dependent protein kinase type II subunit alpha (CAMK2A, Homo sapiens, UniProt Q9UQM7) | binding, competition with immobilised ligand | – | 82%
Serine/threonine-protein kinase Chk1 (CHEK1, Homo sapiens, UniProt O14757) | kinase binding, KINOMEscan | reference: DMSO control | 75%
Tyrosine-protein kinase TXK (TXK, Homo sapiens, UniProt P42681) | kinase binding, KINOMEscan | reference: DMSO control | 89%
